Measurements gathered from unrelated publications.
Compare with care: the assays were run in different laboratories. Several values in a cell are separate wells, animals, samples, runs or records. ± gives the spread as reported.

Compound | assay | test system | conditions | CL/F
C[C@@H](Oc1cc(-c2cnn(C3CCNCC3)c2)cnc1N)c1c(Cl)ccc(F)c1Cl |  | human patients, plasma | oral, cycle 2 day 1, median, added: avelumab | 75 L/h
CC[C@@H]1CN(C(=O)NCC(F)(F)F)C[C@@H]1c1cnc2cnc3[nH]ccc3n12 | population PK model | human, plasma |  | 40.9 L/h
C#Cc1cccc(Nc2ncnc3cc(OCCOC)c(OCCOC)cc23)c1 |  | human patients |  | ~7 L/h
CCn1cc(C(=O)N2CCOCC2)c(=O)c2cc(NC3Cc4ccccc4C3)cnc21 |  | human female, fed, plasma | oral, 900 mg twice daily, day 1, tablet, arithmetic mean | 22.3 L/h
C=CC(=O)N1C[C@H](Nc2ncnc3[nH]ccc23)CC[C@@H]1C |  | human | oral, 50 mg single dose, alone without rifampicin | 111 L/h
COc1ccc([C@@H]2CN(C(=O)[C@@H](O)CO)C[C@@]2(C)[C@@H](C)O)cc1OC1CN(c2ccc(C)cn2)C1 |  | healthy human | oral, 20 mg | 4.22 L/h
O=C(O)CCC(=O)O.[2H]C([2H])([2H])Oc1cc(C)c2[nH]ccc2c1CN1CC[C@@H](C2CC2)C[C@H]1c1ccc(C(=O)O)cc1 | LC-MS/MS, mean | human, plasma | 100 mg, single dose, fasting | 1.81 L/h
C[C@@H]1CCO[C@H]2Cn3cc(C(=O)NCc4ccc(F)cc4F)c(=O)c(O)c3C(=O)N12 |  | human, normal renal function | oral, steady state, fixed-dose combination | 0.7 L/h
Cc1cc(C)c(CNC(=O)c2cc(Cl)c3c(c2C)O[C@@](C)([C@H]2CC[C@H](N(C)C)CC2)O3)c(=O)[nH]1 | population PK model | human |  | 520 L/h
C[C@@H](Oc1ccc(S(C)(=O)=O)cc1C(=O)N1C[C@@H]2C[C@]2(c2cc(C(F)(F)F)on2)C1)C(F)(F)F |  | healthy young humans | oral, 25 mg single dose | 3.84 L/h
CN(C)CCC[C@@]1(c2ccc(F)cc2)OCc2cc(C#N)ccc21 |  | human | oral | 11.5 L/h
CC(=O)N(C)[C@H]1CCN(C(=O)c2cnc3c(c2)C[C@](C)(c2ccc(F)cc2)N3)C1 |  | human, male, plasma | oral, 60 mg once daily, steady state, geometric mean | 18.5 L/h
CC1(COc2ccc3c(c2)ncn3-c2ccc3cccc(N4CCC(N)CC4)c3n2)COC1 |  | human patients, recurrent/progressive HGG or DIPG, serum | oral, 100 mg/m^2, day 1, median | 56.4 L/h/m²
Cc1ncnc2c1ccn2[C@@H]1C[C@H](Oc2cc(C(F)F)c(F)c3c2CNCC3)[C@@H](O)[C@H]1O |  | human, plasma | 8 mg once daily | 11.5 L/h and 5.15 L/h
CCCOc1ccc(NC(=O)CN2CCN(C)CC2)cc1-c1nc(CC)c(CC)c(=O)[nH]1 |  | human, fasting, plasma | oral, 10 mg, added: placebo | 17.9 ± 2.8 L/h
Cn1cncc1[C@@](N)(c1ccc(Cl)cc1)c1ccc2c(c1)c(-c1cccc(Cl)c1)cc(=O)n2C |  | human patients | oral, 300 mg/m2, first dose, cycle 1, initial cohort, median | 286 mL/min/m2
C[C@H](O)c1cc(C(=O)N[C@@H](C)Cn2ccc(-c3ccc(C#N)c(Cl)c3)n2)n[nH]1 |  | human, fasted, plasma | oral solution, 300 mg 14C-darolutamide, geometric mean | 3.94 L/h

Compound | assay | test system | conditions | CL/F
C#C[C@]1(CO)O[C@@H](n2cnc3c(N)nc(F)nc32)C[C@@H]1O |  | human, plasma | oral, 30 mg, single dose, geometric mean | 26.7 L/h
CN1C(=O)[C@@H](NC(=O)c2nnc(Cc3ccccc3)[nH]2)COc2cccnc21 |  | healthy human, fasted, plasma | oral, 400 mg single dose, geometric mean | 6.96 L/h
C=CC(=O)NC1CCN(c2ncc3ncnc(Nc4ccc(Oc5ccc6c(c5)ncn6C)c(C)c4)c3n2)CC1 |  | human, plasma | oral, 30 mg single dose, fasted, geometric mean | 9.36 L/h
COC(=O)N[C@@H](C)CNc1nccc(-c2cn(C(C)C)nc2-c2cc(Cl)cc(NS(C)(=O)=O)c2F)n1 |  | human, plasma | 50 mg, single dose, arithmetic mean, added: diltiazem 240 mg once daily | 16 L/h
CC(C)c1nc(N(C)S(C)(=O)=O)nc(-c2ccc(F)cc2)c1/C=C/[C@@H](O)C[C@@H](O)CC(=O)O |  | human | oral, substrate with omaveloxolone, added: omaveloxolone once daily | 414 L/h
Cc1ccc(=O)n(-c2ccccc2)c1 |  | healthy human | oral, 600 mg single, alone | 15.2 L/h
CCN1CCN(Cc2ccc(Nc3ncc(F)c(-c4cc(F)c5nc(C)n(C(C)C)c5c4)n3)nc2)CC1 |  | fasted healthy human subjects | oral, 150 mg, 3 × 50 mg tablet | 48.1 L/h
[H]/N=C(/N)c1ccc(NCc2nc3cc(C(=O)N(CCC(=O)O)c4ccccn4)ccc3n2C)cc1 |  | healthy human subjects, plasma | oral, 150 mg, dabigatran etexilate alone, arithmetic mean | 171 L/h
CC(C)c1nc(N(C)S(C)(=O)=O)nc(-c2ccc(F)cc2)c1/C=C/[C@@H](O)C[C@@H](O)CC(=O)O |  | human, plasma | 20 mg, day 2, geometric mean, alone | 412 L/h
Cn1nnc2c(C(N)=O)ncn2c1=O |  | human patients, plasma | oral, 55 mg/m2, day 5, dose level DL6, median, added: talazoparib 600 µg/m2 | 4.3 L/h/m2
CNC(=O)n1ccc2cc(Oc3ccnc(NC(=O)c4ccc(C5CCN(CCO)CC5)cc4)c3)c(OCCOC)cc21 |  | healthy human, plasma | oral, 35 mg, geometric mean, alone | 324 L/h
CC#CC(=O)N1CC[C@@H](n2cc(-c3ccc(Oc4c(F)cccc4F)cc3)c3c(N)n[nH]c(=O)c32)C1 |  | human patients | 100 to 300 mg, monotherapy | 55.4 L/h
Cc1ccc(C)c(OCCCC(C)(C)C(=O)O)c1 |  | human | oral, dose not given, after lopinavir/ritonavir, geometric mean, added: lopinavir/ritonavir | 9.8 L/h
C[C@@H](Oc1ccc(S(C)(=O)=O)cc1C(=O)N1C[C@@H]2C[C@]2(c2cc(C(F)(F)F)on2)C1)C(F)(F)F |  | healthy human volunteers, fed | oral, 10 mg single, geometric mean | 4.39 L/h
Cn1cc(-c2cn3nccc3c(-c3cnn([C@]4(CC#N)C[C@@H](C#N)C4)c3)n2)cn1 |  | healthy human fed | dose not given, day 10, once daily dosing | 80.6 L/h
CC1(C)CC[C@]2(NC(=O)C(C)(F)F)CC[C@]3(C)[C@H](C(=O)C=C4[C@@]5(C)C=C(C#N)C(=O)C(C)(C)[C@@H]5CC[C@]43C)[C@@H]2C1 |  | human | mean, added: efavirenz once daily | 224 L/h
Cn1c(=O)oc2ccc(-c3ccc(C[C@@H](C#N)NC(=O)[C@@H]4CNCCCO4)cc3)cc21 |  | human, mild renal impairment, plasma | oral, 25 mg single dose, mean | 7.72 L/h

Some of these lines once more:
Compound | assay | test system | conditions | CL/F
C=CC(=O)NC1CCN(c2ncc3ncnc(Nc4ccc(Oc5ccc6c(c5)ncn6C)c(C)c4)c3n2)CC1 |  | human, plasma | oral, 30 mg single dose, fasted, geometric mean | 9.36 L/h
COC(=O)N[C@@H](C)CNc1nccc(-c2cn(C(C)C)nc2-c2cc(Cl)cc(NS(C)(=O)=O)c2F)n1 |  | human, plasma | 50 mg, single dose, arithmetic mean, added: diltiazem 240 mg once daily | 16 L/h
